Measurements collected from several papers.
Every numbered part comes from another study and shows a few of its results, in no order.

Block 1
Target: Histone acetyltransferase KAT6A, both winged helices, GST fusion (KAT6A, Homo sapiens, UniProt Q92794, residues 1-181)
Technique: protein binding microarray
Form: double-stranded DNA, one strand shown
Sample: in vitro
Concentration: not given
Notes: 8-mer, flanks averaged, mean of 2 arrays, mostly near background
Baseline: not given
Direction: higher = stronger binding
Construct (chain): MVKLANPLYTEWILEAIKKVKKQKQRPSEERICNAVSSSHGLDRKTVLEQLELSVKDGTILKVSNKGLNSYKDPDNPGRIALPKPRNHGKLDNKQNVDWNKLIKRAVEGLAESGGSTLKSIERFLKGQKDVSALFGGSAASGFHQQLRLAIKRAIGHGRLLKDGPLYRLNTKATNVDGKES
Oligonucleotide | E-score
CCCAGCAG | -0.239
CTGGTCCA | -0.147
GAATAGGA | 0.0208
CAGCTCGG | 0.0418
GACATCAC | 0.0549

Block 2
Target: RNA binding protein fox-1 homolog 2, RRM domain, GST-SBP tag (RBFOX2, Homo sapiens, UniProt O43251-10, residues 100-194)
Technique: RNA Bind-n-Seq
Form: RNA
Sample: in vitro
Concentration: 365 nM
Notes: natural RNA segment, single round, ends assumed
Baseline: no-protein control
Direction: higher = stronger binding
Shared flanks, not repeated: GGGAGUUCUACAGUCCGACGAUC … UGGAAUUCUCGGGUGCCAA
Construct (chain): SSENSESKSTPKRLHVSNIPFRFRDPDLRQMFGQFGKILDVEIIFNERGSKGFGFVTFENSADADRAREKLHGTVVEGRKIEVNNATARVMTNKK
Oligonucleotide | RBNS enrichment (R)
CUUCUCUUUUCCUCGCAGAUGAUAAAAGGAAUCUGGCAUUCUACACCUGGACCAUUUGAUUGUUUUAUUUUGGAAUUGGUGUAUAUCAUGAAGCCUUGCUGAACUAAGUU | 0.318
GGGCAAUUUGUUGAUGAGGUGAAUUAGUUAUCCCUCUUCUUGUAGAAGACCCUUUAGCUACCCCUCCUAUUGCUACUCGUGCACCUUCCAUUACACUCCCCCCUACCUUU | 0.603
UAUGAUCCAGCGCUCAGCCUUCGCUCUAGGAUGCUGUGGUCCCCAUUCCCAGUUCCUCCAGUGCCAGUACUUUAGCUUGGCCUAGCCCCAGUCUCAGGAACUGUUGUGGU | 0.387
UUUGUUUUGGUAAGCUGUCCUCCAGGAUCAGCACUGCCUGUGAAUACUUUGAACUGUCUCCUGCUUACAGGGGUGUAAUGGUUUCCUUUGACUAGAAGUCUAUUUGUGUU | 0.438
CACUCAUUGCAGUCUUGUUGAACCAGGGUCCUAACCACUAACAUUGCAAUUUGCUUUGAGACCUUCCCUGUCCUGGGUACUAGGUGCUAUGAAGCCAGCUGACAGAAGCA | 0.809
AGGGGCUUCCCUACCUCAGGCAGGAAGGGCAGGAAGAAGAGCCUGGAGCCCAGGCGAGGGGGACGGCAAGGGCCUGUCUUUGUGCUCUGCCCCACCUAGCCUGGGCAGCA | 0.643
CCCCCAAAGGUACUGAAAAGUCUCUGAUGCUCCUACUCCUGGAAAGAAGUCUGGGAAGCCCCUUUCGCUCUGCCUCCUGCAUCCUCCCAGAUAACAAAACACAUUAACAC | 0.677

Block 3
Target: Ras GTPase-activating protein-binding protein 1, full length (G3BP1, Homo sapiens, UniProt Q13283)
Chain of UniProt Q13283 (whole entry, looked up): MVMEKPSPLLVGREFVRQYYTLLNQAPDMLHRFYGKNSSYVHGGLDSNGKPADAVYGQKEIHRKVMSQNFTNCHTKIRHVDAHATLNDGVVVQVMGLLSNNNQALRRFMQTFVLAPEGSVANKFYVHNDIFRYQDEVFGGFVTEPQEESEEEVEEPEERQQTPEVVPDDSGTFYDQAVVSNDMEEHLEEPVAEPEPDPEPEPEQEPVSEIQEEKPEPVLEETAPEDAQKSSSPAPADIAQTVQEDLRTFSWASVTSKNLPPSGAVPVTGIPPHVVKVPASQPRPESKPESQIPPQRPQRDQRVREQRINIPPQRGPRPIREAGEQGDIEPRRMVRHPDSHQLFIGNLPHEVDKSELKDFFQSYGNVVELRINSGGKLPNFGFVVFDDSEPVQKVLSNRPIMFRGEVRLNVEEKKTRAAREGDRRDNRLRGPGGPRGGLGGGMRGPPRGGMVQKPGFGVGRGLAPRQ
Technique: RNA Bind-n-Seq
Form: RNA
Sample: in vitro
Concentration: 200 nM
Notes: whole 134-nt RNA, ends assumed
Together with: 150 mM LiCl
Baseline: input library
Direction: higher = stronger binding
Library: 7-deaza-guanosine replaces G
Shared flanks, not repeated: GGGAGUUCUACAGUCCGACGAUC … UGGAAUUCUCGGGUGUCAAGG
Oligonucleotide | log2 enrichment
GAAAUUGAACCAGCAGCGAUGAAAGCAGCAGCUGCUGCCCCUGCCUCAGAGGAUGAGGACGAUGAGGAUGACGAAGAUGAUGAGGAUGAC | -1.29
GCAGGAAGUAAAAACAAAUGGAAAUGCUUCGGAUACUGGCAGGGGUGGGGGUUGCUAAGGAAAGGGUGGGAUGGGAGUGGGUAAAGAGUU | -0.0352
UCCUCAAGUCCUGUGCUACACAUCGUAUGUACCGAAUCGGGAGGAGGAGGGGAAAGUAUUAUGUUACGCCGUUCGGAUCUGCACUUCCAG | 0.205
UCCUGUGCUACACAUCGUAUGUACCGAAUCGGGGCCCCCCGGCCCCCCGGCCCCCCGGGGAAAGUAUUAUGUUACGCCGUUCGGAUCUGC | 0.726
UAACUUUAGAGGAGGAUCUGAGGGAUAUGGCAGUGGACGUGGAUUUGGGGAUGGCUAUAAUGGGUAUGGAGGAGGACCUGGAGGUGGCAA | -0.178

Mixed results
Substance | target | test | test system | setting | how to read | quantity | value
PhoQ, residues 284 288 289 292 302 303 SLANKL | PhoP, residues 12 14 15 18 19 AGCRL (Escherichia coli, UniProt P23836) | Sort-seq, refers to: YFP reporter | E. coli | PhoQ-PhoP variant library, together with: 10 µM Mg2+ | baseline: high Mg2+ state, higher = stronger signaling | fold induction | 39.6

Some of these lines once more (block 3):
Oligonucleotide | log2 enrichment
GCAGGAAGUAAAAACAAAUGGAAAUGCUUCGGAUACUGGCAGGGGUGGGGGUUGCUAAGGAAAGGGUGGGAUGGGAGUGGGUAAAGAGUU | -0.0352
GAAAUUGAACCAGCAGCGAUGAAAGCAGCAGCUGCUGCCCCUGCCUCAGAGGAUGAGGACGAUGAGGAUGACGAAGAUGAUGAGGAUGAC | -1.29
UCCUCAAGUCCUGUGCUACACAUCGUAUGUACCGAAUCGGGAGGAGGAGGGGAAAGUAUUAUGUUACGCCGUUCGGAUCUGCACUUCCAG | 0.205
